Measurements from different studies.
Each numbered part is a random draw from the data of one study; scales do not carry over between parts.
UniProt P49759, sequence (whole entry, looked up): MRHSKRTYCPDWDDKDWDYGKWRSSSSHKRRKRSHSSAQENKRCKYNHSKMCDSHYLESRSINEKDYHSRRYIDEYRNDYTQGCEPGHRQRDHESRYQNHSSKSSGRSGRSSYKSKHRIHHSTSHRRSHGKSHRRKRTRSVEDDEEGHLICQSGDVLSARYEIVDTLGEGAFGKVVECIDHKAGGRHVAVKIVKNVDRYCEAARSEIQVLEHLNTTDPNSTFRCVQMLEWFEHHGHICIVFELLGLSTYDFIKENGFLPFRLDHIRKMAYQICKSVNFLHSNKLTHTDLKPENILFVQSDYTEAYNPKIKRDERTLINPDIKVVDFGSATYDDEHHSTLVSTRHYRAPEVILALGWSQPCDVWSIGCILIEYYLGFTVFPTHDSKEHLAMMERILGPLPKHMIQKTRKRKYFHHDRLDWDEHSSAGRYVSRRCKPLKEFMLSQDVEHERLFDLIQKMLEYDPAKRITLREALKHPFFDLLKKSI
UniProt Q6ZWH5, sequence (whole entry, looked up): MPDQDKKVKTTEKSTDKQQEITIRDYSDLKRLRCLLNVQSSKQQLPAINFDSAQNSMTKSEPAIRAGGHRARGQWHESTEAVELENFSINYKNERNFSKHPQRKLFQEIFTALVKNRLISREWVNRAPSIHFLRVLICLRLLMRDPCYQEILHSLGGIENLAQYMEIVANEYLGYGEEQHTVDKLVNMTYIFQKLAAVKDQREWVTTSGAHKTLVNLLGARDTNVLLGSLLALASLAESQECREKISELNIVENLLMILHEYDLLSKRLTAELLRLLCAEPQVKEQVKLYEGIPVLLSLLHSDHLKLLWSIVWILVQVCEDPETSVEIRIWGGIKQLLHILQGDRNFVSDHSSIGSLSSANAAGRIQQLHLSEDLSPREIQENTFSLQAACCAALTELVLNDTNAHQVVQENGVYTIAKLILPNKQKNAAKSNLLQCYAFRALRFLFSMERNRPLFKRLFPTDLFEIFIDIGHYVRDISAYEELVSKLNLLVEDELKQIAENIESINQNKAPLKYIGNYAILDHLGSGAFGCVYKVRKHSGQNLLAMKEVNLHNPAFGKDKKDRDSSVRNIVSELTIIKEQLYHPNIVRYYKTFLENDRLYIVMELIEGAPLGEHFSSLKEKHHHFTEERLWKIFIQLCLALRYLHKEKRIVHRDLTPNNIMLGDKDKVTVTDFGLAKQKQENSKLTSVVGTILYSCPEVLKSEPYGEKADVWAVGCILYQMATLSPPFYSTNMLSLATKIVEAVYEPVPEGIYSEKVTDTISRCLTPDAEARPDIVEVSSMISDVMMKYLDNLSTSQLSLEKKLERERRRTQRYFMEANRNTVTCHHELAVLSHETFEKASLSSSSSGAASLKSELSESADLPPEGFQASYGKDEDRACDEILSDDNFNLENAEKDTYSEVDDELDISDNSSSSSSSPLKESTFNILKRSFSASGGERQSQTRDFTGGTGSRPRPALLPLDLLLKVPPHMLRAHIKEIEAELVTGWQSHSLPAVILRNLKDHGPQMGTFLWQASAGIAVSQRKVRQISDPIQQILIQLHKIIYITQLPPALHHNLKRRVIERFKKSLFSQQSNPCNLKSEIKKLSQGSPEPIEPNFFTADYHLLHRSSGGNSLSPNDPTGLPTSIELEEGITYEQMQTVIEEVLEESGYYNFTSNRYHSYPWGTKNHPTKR
UniProt Q9H2X6, sequence (whole entry, looked up): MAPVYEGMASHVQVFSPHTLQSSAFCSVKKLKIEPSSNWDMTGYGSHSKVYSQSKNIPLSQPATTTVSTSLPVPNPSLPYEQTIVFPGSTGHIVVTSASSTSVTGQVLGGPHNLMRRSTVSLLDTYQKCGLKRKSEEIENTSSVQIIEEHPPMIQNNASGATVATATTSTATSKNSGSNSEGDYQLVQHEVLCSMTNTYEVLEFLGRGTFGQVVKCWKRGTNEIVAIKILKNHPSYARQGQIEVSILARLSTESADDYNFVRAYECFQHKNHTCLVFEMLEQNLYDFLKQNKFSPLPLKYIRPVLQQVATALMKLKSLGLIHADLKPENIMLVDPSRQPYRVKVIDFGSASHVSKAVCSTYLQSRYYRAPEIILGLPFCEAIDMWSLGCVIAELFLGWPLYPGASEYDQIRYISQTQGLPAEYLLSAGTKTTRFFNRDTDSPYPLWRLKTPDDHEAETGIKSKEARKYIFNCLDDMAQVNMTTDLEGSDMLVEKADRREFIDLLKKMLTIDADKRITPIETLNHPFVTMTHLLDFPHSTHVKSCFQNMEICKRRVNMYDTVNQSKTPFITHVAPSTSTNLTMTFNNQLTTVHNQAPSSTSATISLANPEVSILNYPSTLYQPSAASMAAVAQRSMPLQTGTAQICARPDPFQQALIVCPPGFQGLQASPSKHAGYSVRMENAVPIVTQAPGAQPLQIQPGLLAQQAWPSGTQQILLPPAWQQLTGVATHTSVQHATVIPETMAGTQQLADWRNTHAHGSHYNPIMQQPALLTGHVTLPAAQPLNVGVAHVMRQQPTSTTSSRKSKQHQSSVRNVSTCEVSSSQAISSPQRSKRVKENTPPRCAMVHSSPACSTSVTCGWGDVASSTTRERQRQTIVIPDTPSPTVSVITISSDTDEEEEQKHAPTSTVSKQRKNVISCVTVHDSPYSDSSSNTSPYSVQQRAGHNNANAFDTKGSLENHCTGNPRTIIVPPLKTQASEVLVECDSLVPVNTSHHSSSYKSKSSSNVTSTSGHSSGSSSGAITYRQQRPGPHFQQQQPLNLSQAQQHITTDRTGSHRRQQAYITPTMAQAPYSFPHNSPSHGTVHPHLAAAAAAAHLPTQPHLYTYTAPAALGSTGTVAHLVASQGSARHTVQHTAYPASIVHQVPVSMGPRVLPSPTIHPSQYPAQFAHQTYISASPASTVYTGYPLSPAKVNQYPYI
UniProt P54756, sequence (whole entry, looked up): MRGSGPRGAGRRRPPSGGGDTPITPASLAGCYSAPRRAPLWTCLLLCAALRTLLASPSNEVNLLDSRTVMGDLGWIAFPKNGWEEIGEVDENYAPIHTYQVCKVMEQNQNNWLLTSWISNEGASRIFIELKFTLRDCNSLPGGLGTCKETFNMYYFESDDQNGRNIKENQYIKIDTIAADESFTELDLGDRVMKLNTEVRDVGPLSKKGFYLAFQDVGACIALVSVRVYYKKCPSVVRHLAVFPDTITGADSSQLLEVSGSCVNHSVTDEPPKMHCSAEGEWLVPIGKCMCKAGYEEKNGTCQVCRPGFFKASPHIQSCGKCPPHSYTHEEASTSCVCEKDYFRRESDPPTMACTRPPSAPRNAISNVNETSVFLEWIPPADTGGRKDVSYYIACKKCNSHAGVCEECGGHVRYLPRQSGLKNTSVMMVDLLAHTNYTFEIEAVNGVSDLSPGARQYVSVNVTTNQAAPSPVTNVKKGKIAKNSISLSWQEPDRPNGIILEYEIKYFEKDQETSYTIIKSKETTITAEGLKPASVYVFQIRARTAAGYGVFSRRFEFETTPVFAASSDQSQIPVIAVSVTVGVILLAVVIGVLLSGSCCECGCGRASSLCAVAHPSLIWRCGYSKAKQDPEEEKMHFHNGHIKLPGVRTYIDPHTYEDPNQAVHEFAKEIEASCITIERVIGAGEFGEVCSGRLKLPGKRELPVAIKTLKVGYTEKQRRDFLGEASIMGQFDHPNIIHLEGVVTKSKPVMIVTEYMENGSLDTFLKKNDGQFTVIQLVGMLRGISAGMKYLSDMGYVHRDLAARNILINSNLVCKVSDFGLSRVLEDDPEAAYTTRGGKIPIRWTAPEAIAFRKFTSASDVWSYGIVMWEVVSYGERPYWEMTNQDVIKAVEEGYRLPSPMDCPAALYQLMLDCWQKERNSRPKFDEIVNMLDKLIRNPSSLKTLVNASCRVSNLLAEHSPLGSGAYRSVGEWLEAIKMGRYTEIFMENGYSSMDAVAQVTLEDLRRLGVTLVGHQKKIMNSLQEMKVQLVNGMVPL

Study 1
Species: human
Medium: microsomes or S9
Concentration: 2 µM
Time: 0.5 h
SMILES	remaining compound
Cc1ccc2nc3c(cc(C(=O)N4COCC4(C)C)n3Cc3ccccc3)c(=O)n2c1	55.8%
CCOc1ccc(CCNC(=O)Cn2cccc2C(=O)c2ccccc2C)cc1OCC	3.53%
c1ccc(-n2ccc3cnc(N4CCCCC4)nc32)nc1	0.922%
c1ccc(-c2nc(Cc3nc4ccccc4[nH]3)no2)cc1	35%
CCOc1cc(=O)n2c(c1C(=O)Nc1cc(Cl)c(OC)cc1OC)CCCC2	73.6%

Study 2
Target: Homeodomain-interacting protein kinase 3 (HIPK3, Homo sapiens, UniProt Q9H422)
UniProt Q9H422, sequence (whole entry, looked up): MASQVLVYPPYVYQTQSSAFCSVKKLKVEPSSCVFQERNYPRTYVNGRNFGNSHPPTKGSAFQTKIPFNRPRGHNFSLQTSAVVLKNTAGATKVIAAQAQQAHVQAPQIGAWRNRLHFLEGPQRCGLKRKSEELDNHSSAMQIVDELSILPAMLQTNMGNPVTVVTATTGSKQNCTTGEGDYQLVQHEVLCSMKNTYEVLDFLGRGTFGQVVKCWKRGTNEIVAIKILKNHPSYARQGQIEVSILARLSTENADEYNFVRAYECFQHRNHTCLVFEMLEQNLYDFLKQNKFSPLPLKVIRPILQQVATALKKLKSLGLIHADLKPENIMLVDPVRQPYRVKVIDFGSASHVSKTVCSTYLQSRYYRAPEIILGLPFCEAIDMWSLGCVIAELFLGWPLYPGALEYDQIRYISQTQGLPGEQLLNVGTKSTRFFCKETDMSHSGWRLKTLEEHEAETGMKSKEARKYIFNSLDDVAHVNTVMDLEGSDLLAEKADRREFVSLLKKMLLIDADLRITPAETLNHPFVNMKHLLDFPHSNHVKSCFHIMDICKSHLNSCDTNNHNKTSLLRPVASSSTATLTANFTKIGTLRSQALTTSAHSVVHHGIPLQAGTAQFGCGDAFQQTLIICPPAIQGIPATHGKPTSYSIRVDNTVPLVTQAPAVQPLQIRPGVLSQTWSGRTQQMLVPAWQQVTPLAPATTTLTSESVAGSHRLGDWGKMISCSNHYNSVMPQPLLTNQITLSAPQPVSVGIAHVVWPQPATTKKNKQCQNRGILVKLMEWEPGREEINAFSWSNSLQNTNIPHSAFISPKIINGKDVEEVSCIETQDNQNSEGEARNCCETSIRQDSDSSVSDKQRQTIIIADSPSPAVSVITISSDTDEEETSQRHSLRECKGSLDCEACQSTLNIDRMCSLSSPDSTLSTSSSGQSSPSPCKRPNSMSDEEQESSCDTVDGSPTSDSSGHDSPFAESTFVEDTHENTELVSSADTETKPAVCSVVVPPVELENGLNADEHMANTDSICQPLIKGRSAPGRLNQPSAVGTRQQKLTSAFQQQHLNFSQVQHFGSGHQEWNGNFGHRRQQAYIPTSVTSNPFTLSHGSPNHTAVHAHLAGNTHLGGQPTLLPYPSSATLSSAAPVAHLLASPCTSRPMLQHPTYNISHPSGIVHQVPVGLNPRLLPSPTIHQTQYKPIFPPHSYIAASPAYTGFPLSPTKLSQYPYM
Read-out: enzyme activity
Action: inhibitor
Concentration: 0.5 µM
Baseline: control
SMILES	remaining activity
Clc1ccc(Nc2nnc(Cc3ccncc3)c3ccccc23)cc1	96.5%
N#CC(c1ccnc(NCCc2cccnc2)n1)c1nc2ccccc2s1 (stereo not shown)	106%
Cc1cc(Nc2cc(N3CCN(C)CC3)nc(Sc3ccc(NC(=O)C4CC4)cc3)n2)[nH]n1	99.1%
O=c1c(-c2ccc(F)cc2)c(-c2ccncc2)[nH]n1-c1ccc(Cl)cc1	101%
Cc1ccc(S(=O)(=O)/C=C/C#N)cc1	100%
CC(C)(C)c1nc2c3cc[nH]c(=O)c3c3cc(F)ccc3c2[nH]1	78.6%
FC(F)(F)c1ccc(/C=C/c2nc(COc3ccc(CCCCn4ccnn4)cc3)co2)cc1	100%
O=C1NC(=O)c2c1c1c3ccccc3[nH]c1n1cncc21	66.9%
Oc1cccc(-c2nc(N3CCOCC3)c3oc4ncccc4c3n2)c1	93.8%
O=c1cc(N2CCOCC2)oc2c(-c3ccccc3)cccc12	120%
c1cc(-c2cnn3cc(-c4ccc(OCCN5CCCCC5)cc4)cnc23)ccn1	89.4%
CCN(CC)CCCCN1c2ccccc2Oc2ccc(Cl)cc21	94.2%
CN(C)S(=O)(=O)c1ccc2c(c1)/C(=C/c1cc3c([nH]1)CCCC3)C(=O)N2	107%
O=Nc1c(-c2c(O)[nH]c3ccccc23)[nH]c2ccccc12	89.2%
NC(=O)c1cccc(-c2cc(Nc3ccc(OC(F)(F)F)cc3)ncn2)c1	104%
O=C1c2ccccc2-c2nc3nnnn3nc21	101%
O=C(O)/C=C/c1cc(Br)c(Br)c(Br)c1Br	96.7%
Nc1nc(Nc2ccc(S(N)(=O)=O)cc2)nn1C(=S)Nc1c(F)cccc1F	78.2%
COc1cc2c(Nc3ccc(Br)cc3F)ncnc2cc1OCC1CCN(C)CC1	99.5%

Study 3
Organism: Sarcocystis neurona
Read-out: parasite growth
Concentration: 10 µM
SMILES	inhibition
CC(C)(C)NC(=O)[C@H]1CC[C@H]2[C@@H]3CC[C@H]4NC(=O)C=C[C@]4(C)[C@H]3CC[C@]12C	25.5%
CC(=O)OCC(=O)[C@@]12OC(C)(C)O[C@@H]1C[C@H]1[C@@H]3C[C@H](F)C4=CC(=O)C=C[C@]4(C)[C@@]3(F)[C@@H](O)C[C@@]12C	-35.3%
CC(C)c1nc(CN(C)C(=O)N[C@H](C(=O)N[C@@H](Cc2ccccc2)C[C@H](O)[C@H](Cc2ccccc2)NC(=O)OCc2cncs2)C(C)C)cs1	29.9%
CCN(CC)CCNC(=O)c1cc(Cl)c(N)cc1OC.Cl	-20.1%

Study 4
SMILES: Cc1cc(NC(=O)c2cccc(S(F)(F)(F)(F)F)c2)cc(-n2ccn3nc(-c4cccnc4)cc23)c1
Read-out: cell-free assay
Method: competition with immobilised ligand
Concentration: 1 µM
target	remaining binding
Ephrin type-A receptor 5 (EPHA5, Homo sapiens, UniProt P54756)	100%
Homeodomain-interacting protein kinase 2 (HIPK2, Homo sapiens, UniProt Q9H2X6)	85%
Fibroblast growth factor receptor 4 (FGFR4, Homo sapiens, UniProt P22455)	100%
Dual specificity protein kinase CLK1 (CLK1, Homo sapiens, UniProt P49759)	100%
Serine/threonine-protein kinase Nek10 (NEK10, Homo sapiens, UniProt Q6ZWH5)	37.6%
Serine/threonine-protein kinase DCLK3 (DCLK3, Homo sapiens, UniProt Q9C098)	100%
Dual specificity protein kinase CLK4 (CLK4, Homo sapiens, UniProt Q9HAZ1)	100%

Study 5
Cell line: A-375
Concentration: 100 µM
Time: 36 h
SMILES	viability
O=S(=O)(O)CCSSCCS(=O)(=O)O	109%
CC1=NN(c2ccccc2)C(=O)C1	110%
Cc1cc(C#N)cc(C)c1Oc1nc(Nc2ccc(C#N)cc2)nc(N)c1Br	15.9%
Nc1ccc(S(=O)(=O)NC(=O)c2ccccc2)cc1	108%
CO[C@H]1O[C@@H]2O[C@@]3(C)CC[C@H]4[C@H](C)CC[C@@H]([C@H]1C)[C@@]24OO3	44%
